Measurements gathered from unrelated publications.
Each numbered part is a random draw from the data of one study; scales do not carry over between parts. Substitutions count along the parent as printed.
Chain of UniProt P36896 (whole entry, looked up): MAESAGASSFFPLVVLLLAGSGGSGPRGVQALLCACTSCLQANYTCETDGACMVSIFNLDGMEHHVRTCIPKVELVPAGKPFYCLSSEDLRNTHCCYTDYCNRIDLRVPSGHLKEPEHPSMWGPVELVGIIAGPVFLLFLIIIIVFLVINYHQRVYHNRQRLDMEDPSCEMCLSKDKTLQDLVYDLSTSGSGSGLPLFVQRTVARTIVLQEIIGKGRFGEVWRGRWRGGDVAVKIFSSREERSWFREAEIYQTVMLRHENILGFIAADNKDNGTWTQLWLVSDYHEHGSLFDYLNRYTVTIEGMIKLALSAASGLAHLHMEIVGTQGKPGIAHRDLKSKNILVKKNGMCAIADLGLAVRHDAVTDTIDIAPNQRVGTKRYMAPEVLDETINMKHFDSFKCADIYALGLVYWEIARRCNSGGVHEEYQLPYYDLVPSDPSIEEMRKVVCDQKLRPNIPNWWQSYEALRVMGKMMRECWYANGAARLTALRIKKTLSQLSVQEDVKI

Series 1 — technique: RNA Bind-n-Seq; molecule type: RNA; sample: in vitro; tested at: 15 pmol; setting: 4-mer, random 30-nt RNA, single round; with: 3 µM DMDA-PatA, 2 mM AMP-PNP; relative to: input library; reading: higher = stronger binding
Target: Eukaryotic initiation factor 4A-I (EIF4A1, Homo sapiens, UniProt P60842, residues 1-406, full length assumed)
Chain of UniProt P60842 (whole entry, looked up): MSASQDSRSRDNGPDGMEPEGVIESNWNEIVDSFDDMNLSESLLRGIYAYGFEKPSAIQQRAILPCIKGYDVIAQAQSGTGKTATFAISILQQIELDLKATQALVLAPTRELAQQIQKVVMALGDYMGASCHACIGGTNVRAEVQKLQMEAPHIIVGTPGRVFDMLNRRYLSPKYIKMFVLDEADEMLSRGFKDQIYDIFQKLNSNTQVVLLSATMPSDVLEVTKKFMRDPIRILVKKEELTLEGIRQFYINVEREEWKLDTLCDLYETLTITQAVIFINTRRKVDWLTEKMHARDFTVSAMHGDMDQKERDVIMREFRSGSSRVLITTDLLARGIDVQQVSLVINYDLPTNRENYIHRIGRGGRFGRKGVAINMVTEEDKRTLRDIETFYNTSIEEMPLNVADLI
| Oligonucleotide | 4-mer enrichment [fold] |
| --- | --- |
| CCCC | 0.467 |
| CUGG | 0.791 |
| GGGC | 1.56 |
| AAGG | 1.09 |
| AGUA | 1.27 |
| UCGG | 1.27 |
| GGAU | 1.24 |
| CCAC | 0.341 |

Series 2 — technique: aptamer microarray, sandwich; molecule type: DNA with 2'F-ANA; sample: in vitro; tested at: 200 nM; with: Cy3 exosite-II aptamer, 400 nM; reading: higher = stronger binding; oligonucleotide: GGTTGGTGTGGTTGG
Target: Prothrombin, mature alpha-thrombin (F2, Homo sapiens, UniProt P00734)
Setting: whole 15-mer aptamer, many near background
| Modification | mean fluorescence intensity |
| --- | --- |
| 2'F-ANA at 2 4 5 8 12 13 14 15 | 47.5 a.u. |
| 2'F-ANA at 3 7 8 11 12 | 1360 a.u. |
| 2'F-ANA at 3 6 10 12 13 15 | 482 a.u. |
| 2'F-ANA at 8 12 14 | 291 a.u. |
| 2'F-ANA at 2 3 5 9 10 13 | 57.4 a.u. |
| 2'F-ANA at 1 2 4 10 11 12 13 14 15 | 48.1 a.u. |
| 2'F-ANA at 2 5 6 7 10 11 13 15 | 49.8 a.u. |
| 2'F-ANA at 6 14 | 206 a.u. |

Series 3 — Variant: A35P; technique: DHFR PCA, deep sequencing; sample: yeast; relative to: wild-type fitted maximum; reading: higher = stronger binding
Target: ABI1, truncated, D143A, DHFR fusion (Arabidopsis thaliana)
Setting: methotrexate growth selection, single substitutions
Starting sequence: PYL1, truncated, DHFR fusion (Arabidopsis thaliana); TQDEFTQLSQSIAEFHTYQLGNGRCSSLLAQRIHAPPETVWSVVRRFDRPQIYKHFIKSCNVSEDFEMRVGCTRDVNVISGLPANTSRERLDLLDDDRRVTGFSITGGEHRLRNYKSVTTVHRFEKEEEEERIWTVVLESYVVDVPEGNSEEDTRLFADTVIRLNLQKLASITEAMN
| conditions | relative binding score |
| --- | --- |
| with: (+)-ABA 4.8 µM | 4.89% |
| with: (+)-ABA 0 µM | 8.47% |
| with: (+)-ABA 58 µM | -66.6% |
| with: (+)-ABA 200 µM | -5.62% |
| with: (+)-ABA 0.0091 µM | -3.04% |
| with: (+)-ABA 0.032 µM | 0.105% |

Mixed results
| SMILES | target | test | conditions | scale | endpoint | result |
| --- | --- | --- | --- | --- | --- | --- |
| O=C1Nc2ccc(Br)cc2/C1=C/c1cc2c([nH]1)CCCC2 | Activin receptor type-1B (ACVR1B, Homo sapiens, UniProt P36896) | enzyme activity, inhibitor | 0.5 µM | relative to: control | remaining activity | 99% |

Excerpt of the above (series 2):
| Modification | mean fluorescence intensity |
| --- | --- |
| 2'F-ANA at 1 2 4 10 11 12 13 14 15 | 48.1 a.u. |
| 2'F-ANA at 2 5 6 7 10 11 13 15 | 49.8 a.u. |
| 2'F-ANA at 6 14 | 206 a.u. |
